Published values pooled from the literature.
Compare with care: the assays were run in different laboratories. Several values in a cell are separate wells, animals, samples, runs or records. Numbers after ± are the reported error.

Compound	target or system	test	system	conditions	how to read	quantity	value
CC(=O)N[C@H](C(=O)N1C[C@H](O)C[C@H]1C(=O)NCc1ccc(-c2scnc2C)cc1)C(C)(C)SCCCCCCNC(=O)C[C@@H]1N=C(c2ccc(Cl)cc2)c2c(sc(C)c2C)-n2c(C)nnc21	human DYNC1H1	TMT proteomics	HeLa	1 µM, 24 h	baseline: DMSO	relative protein abundance	1
NCCOc1cc(C(=O)Nc2cc(OCCN)c3ccccc3n2)nc(C(=O)Nc2cc(OCCN)c3ccccc3n2)c1	c-kit2 G-quadruplex DNA	FRET melting	–	1 µM, pH 7.4, together with: 60 mM potassium	–	ΔTm	22.3 ± 0.7 K
N#Cc1ccc2c(-c3ccncc3)c(-c3ccc(F)cc3)nn2c1	orf19.4575 kinase Candida albicans	MIB/MS competition binding	Candida albicans cell lysate	1 µM	baseline: DMSO, lower = stronger binding	log2 fold change	-0.21
NCCOc1cc(NC(=O)c2cc(OCc3c[nH]nn3)cc(C(=O)Nc3cc(OCCN)c4ccccc4n3)n2)nc2ccccc12	double-stranded DNA	FRET melting	–	1 µM, pH 7.4, 60 mM potassium, together with: oligonucleotide 200 nM	–	delta Tm	0 ± 0.1 K
c1coc(-c2n[nH]cc2-c2ccnc3ccccc23)c1	KIN28 (Candida albicans)	kinase binding, MIB/MS competition	Candida albicans lysate	1 µM	baseline: DMSO	log2 fold change	0.2
CC(Nc1nc(N2CCCC2)nc2ccccc12)c1ccccc1 (stereo not shown)	transportin-1/2	FUS nuclear import, high content imaging	HeLa Kyoto reporter	0.03 µM, 2 h	–	cells with nuclear reporter	91.8%
COc1cccc(Nc2nc(NCC3CCCO3)c3ccccc3n2)c1.Cl (stereo not shown)	Trypanosoma cruzi ribosome	translation, measured: Renilla luciferase	Trypanosoma cruzi extract	40 µM	–	inhibition	74.5%
Cc1n[nH]c2ccc(-c3cc(OC[C@@H](N)Cc4ccccc4)cnc3-c3ccoc3)cc12	orf19.4575 kinase Candida albicans	MIB/MS competition binding	Candida albicans cell lysate	100 nM	baseline: DMSO, lower = stronger binding	log2 fold change	-0.428
Oc1ccccc1-c1n[nH]cc1-c1ccnc2ccccc12	STE11 (Candida albicans)	kinase binding, MIB/MS competition	Candida albicans lysate	10 µM	baseline: DMSO	log2 fold change	0.39
c1ccc(-c2n[nH]cc2-c2ccnc3ccccc23)nc1	orf19.4575 kinase Candida albicans	MIB/MS competition binding	Candida albicans cell lysate	10 µM	baseline: DMSO, lower = stronger binding	log2 fold change	1.62
CCCCCCCC(=O)OC[C@H](COP(=O)(O)O[C@@H]1[C@H](O)[C@H](O)[C@@H](OP(=O)(O)O)[C@H](OP(=O)(O)O)[C@H]1O)OC(=O)CCCCCCC	Kv7.2/Kv7.3(EEE) mutant channel	channel activation, activator, activation curve fit	–	model 2	–	maximal open probability	0.359
COc1cccc2c(Nc3ccc4[nH]c(C(=O)N/N=C/c5ccc(SC)cc5)cc4c3)cc(C)nc12	COS-7	WST-8	–	10 µM, 24 h, 0.1% DMSO, unit not given	baseline: vehicle control	metabolic activity	0.41 ± 0.01
C[n+]1cccc2cc(C=NNC(=O)c3ccc4ccc5ccc(C(=O)NN=Cc6ccc7c(ccc[n+]7C)c6)nc5c4n3)ccc21.[I-].[I-]	human telomeric G-quadruplex DNA	UV melting	–	3 µM, 100 mM potassium, together with: DNA 3 µM	–	delta Tm	1.5 °C
CCN1CCN(Cc2ccc(NC(=O)c3ccc(C)c(OCc4cnc5[nH]ccc5c4OC)c3)cc2C(F)(F)F)CC1	ABL/ARG kinases (human)	KiNativ profiling	Huh-7 cell lysate	1.0 µM	–	inhibition	> 80%
CN(C)CCCOc1cc(NC(=O)c2cc(Cl)cc(C(=O)Nc3cc(OCCCN(C)C)c4ccccc4n3)n2)nc2ccccc12	human telomeric G-quadruplex DNA	FRET melting	–	1 µM, pH 7.4, together with: 60 mM potassium	–	ΔTm	35.9 ± 1 K
Cn1cc2c(C(=O)O)ccc(NS(=O)(=O)c3ccc(OCC4CCC4)c(Cl)c3)c2n1	Cav1 calcium channel	antagonist	–	–	–	IC50	> 100000 nM
N[C@@H]1CCN(c2nccc(-c3cnn4ncccc34)n2)C1	human kinase panel	KINOMEscan	–	concentration not given	baseline: control	remaining binding	80% and 58% and 100%
O=C1Nc2ccc(Cl)cc2[C@@](C#CC2CC2)(C(F)(F)F)O1	HIV-1	viral replication	human immunodeficiency virus 1	–	–	IC90	3.24 nM
C#Cc1cc(-c2cc(Nc3nc(N[C@@H](C)c4ccc(F)cn4)ncc3Cl)n[nH]2)ccc1C=O	EGFR del746-750 T790M (human)	kinase activity	–	200 nM	–	inhibition	4.67% and 4.41%

Compound	target or system	test	system	conditions	how to read	quantity	value
COc1cc(C(=O)Nc2cc(OCCN3CCCC3)c3ccccc3n2)nc(C(=O)Nc2cc(OCCN3CCCC3)c3ccccc3n2)c1	double-stranded DNA	FRET melting	–	1 µM, pH 7.4, 60 mM potassium, together with: oligonucleotide 200 nM	–	delta Tm	1 ± 0.3 K
O=C(O)c1cc(O)c2c(c1)C(=O)c1cccc(O[C@@H]3O[C@H](CO)[C@@H](O)[C@H](O)[C@H]3O)c1C2=O	HepaRG co-cultured with HK-2	MTT	–	133.33 µM, 48 h	baseline: untreated control	cell viability	58 ± 5.11%
CC(C)C[C@H](NC(=O)C[C@H](O)[C@H](CC(C)C)NC(=O)[C@H](Cc1c[nH]cn1)NC(=O)CNC(=O)[C@@H](NC(=O)[C@H](C)NC(=O)[C@H](Cc1c[nH]c2ccccc12)NC(=O)[C@H](CCC(N)=O)NC(=O)[C@@H](Cc1ccccc1)NC(=O)COCCOCCNC(=O)CCC(C(=O)O)N1CCN(CC(=O)O)CCN(CC(=O)O)CCN(CC(=O)O)CC1)C(C)C)C(N)=O (stereo partly shown) [lutetium-177 labelled]	–	–	BALB/c nu/nu mice, large intestine	750 pmol, 1 h, together with: PA 300 µg	–	tissue uptake	0.8 ± 0.4 %ID/g
COC1=C(OC)C(=O)C(CC=C(C)C)=C(C)C1=O	FSP1 F15A mutant	substrate	–	together with: 100 µM co-substrate	–	kcat	0.52 ± 0.03 s⁻¹
C#CCOc1cc(C(=O)Nc2cc(OCCCN)c3ccccc3n2)nc(C(=O)Nc2cc(OCCCN)c3ccccc3n2)c1	human telomeric G-quadruplex DNA	FRET melting	–	1 µM, pH 7.4, together with: 60 mM potassium	–	ΔTm	18.3 ± 0.5 K
O=C(Nc1cnc2ccccc2c1)c1cc2[nH]ccc2cc1Cl	COS-7	WST-8	–	1 µM, 24 h, 0.1% DMSO, unit not given	baseline: vehicle control	metabolic activity	1 ± 0.04
Cn1cc(-c2ccc(-c3cncc(Cl)c3N3CCC4(CCNC4=O)CC3)cc2)cn1	COLO 205	gene expression, microarray, measured: IRF7 mRNA	–	concentration not given, 6 h	baseline: untreated cells	log2 fold change	1.55
CN(C)CCCn1c(=O)c2ccc3c(=O)n(CCCN(C)C)c(=O)c4c5[nH]c6ccccc6[nH]c5c(c1=O)c2c34	double-stranded DNA	FRET melting	–	0.25 µM, K+ 100 mM	–	ΔTm	1.5 ± 0.1 °C
CCCCCCCCCCCCCCCc1cccc(O)c1C(=O)O	OCI-Ly1	–	–	0.5 µM, 120 h	–	viability	152%
CN(C)CCCn1c(=O)c2cc(Br)c3c(=O)n(CCCN(C)C)c(=O)c4c5[nH]c6ccccc6[nH]c5c(c1=O)c2c34	double-stranded DNA	FRET melting	–	0.25 µM, K+ 100 mM	–	ΔTm	1.6 ± 0.4 °C
O=C(Nc1cc(OCCN2CCCC2)c2ccccc2n1)c1cc(OCCN2CCCC2)cc(C(=O)Nc2cc(OCCN3CCCC3)c3ccccc3n2)n1	c-kit2 G-quadruplex DNA	FRET melting	–	1 µM, pH 7.4, together with: 60 mM potassium	–	ΔTm	14.9 ± 0.7 K
CCCCCC(O)C(CC=O)SC[C@H](NC(C)=O)C(=O)O (stereo partly shown)	porcine kidney aminoacylase 1	substrate	–	without Co2+	–	kcat	0.004 s⁻¹
NCCOc1cc(C(=O)Nc2cc(OCCN3CCCC3)c3ccccc3n2)nc(C(=O)Nc2cc(OCCN3CCCC3)c3ccccc3n2)c1	human telomeric G-quadruplex DNA	FRET melting	–	1 µM, pH 7.4, together with: 60 mM potassium	–	ΔTm	35.5 ± 0.9 K
CNC(=O)c1ccccc1Nc1cc(Nc2ccc(N3CCOCC3)cc2OC)ncc1C(F)(F)F	RSK3	KINOMEscan	–	1 µM	baseline: control	remaining binding	< 10%
COc1cc2c(NC3CCN(C(C)C)CC3)nc(C3CCCCC3)nc2cc1OCCCN1CCCC1	OCI-Ly1	–	–	0.1 µM, 120 h	–	viability	204%
CN(C)CCOc1cc(NC(=O)c2cc(Cl)cc(C(=O)Nc3cc(OCCN(C)C)c4ccccc4n3)n2)nc2ccccc12	double-stranded DNA	FRET melting	–	1 µM, pH 7.4, 60 mM potassium, together with: oligonucleotide 200 nM	–	delta Tm	0 ± 0.1 K
CC(C)OC(=O)OCOP(=O)(CO[C@H](C)Cn1cnc2c(N)ncnc21)OCOC(=O)OC(C)C	HIV-1	viral replication	human immunodeficiency virus 1	–	–	IC90	10.8 nM
COc1c(O)c(C)cc2c1C(=O)c1c(cc(O)c(O)c1O)C2=O	HepaRG co-cultured with HK-2	MTT	–	66.67 µM, 48 h	baseline: untreated control	cell viability	75.1 ± 11.8%

Repeated from above:
Compound	target or system	test	system	conditions	how to read	quantity	value
Cn1cc2c(C(=O)O)ccc(NS(=O)(=O)c3ccc(OCC4CCC4)c(Cl)c3)c2n1	Cav1 calcium channel	antagonist	–	–	–	IC50	> 100000 nM
COc1cccc2c(Nc3ccc4[nH]c(C(=O)N/N=C/c5ccc(SC)cc5)cc4c3)cc(C)nc12	COS-7	WST-8	–	10 µM, 24 h, 0.1% DMSO, unit not given	baseline: vehicle control	metabolic activity	0.41 ± 0.01
CC(Nc1nc(N2CCCC2)nc2ccccc12)c1ccccc1 (stereo not shown)	transportin-1/2	FUS nuclear import, high content imaging	HeLa Kyoto reporter	0.03 µM, 2 h	–	cells with nuclear reporter	91.8%
COC1=C(OC)C(=O)C(CC=C(C)C)=C(C)C1=O	FSP1 F15A mutant	substrate	–	together with: 100 µM co-substrate	–	kcat	0.52 ± 0.03 s⁻¹
COc1cc2c(NC3CCN(C(C)C)CC3)nc(C3CCCCC3)nc2cc1OCCCN1CCCC1	OCI-Ly1	–	–	0.1 µM, 120 h	–	viability	204%
O=C1Nc2ccc(Cl)cc2[C@@](C#CC2CC2)(C(F)(F)F)O1	HIV-1	viral replication	human immunodeficiency virus 1	–	–	IC90	3.24 nM
